Published values collected from several papers.
Every numbered part comes from another study and shows a few of its results, in no order. Changes are numbered by the printed parent chain.

Block 1
Target: RNA binding protein fox-1 homolog 2, RRM domain, GST-SBP tag (RBFOX2, Homo sapiens, UniProt O43251-10, residues 100-194)
Method: RNA Bind-n-Seq
Molecule type: RNA
Matrix: in vitro
Tested at: 365 nM
Notes: natural RNA segment, single round, ends assumed
Baseline: no-protein control
Reading: higher = stronger binding
Residues (chain): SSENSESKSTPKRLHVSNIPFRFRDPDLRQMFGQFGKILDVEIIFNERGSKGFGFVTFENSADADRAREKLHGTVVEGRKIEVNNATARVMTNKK
For `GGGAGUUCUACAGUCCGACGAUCGUUUGCCUUGGGCAGCUGUGGGGUUUUUCCGAUCUUGCUAGCCCGCAGGCAUCUUGACAUCUUAGUAACUGCCUUUUUAAUCCCAGUGGCCUGUACCAUAUUAUGGAGAAUGGAAUUCUCGGGUGCCAA`, “RBNS enrichment (R)” read 0.279.
`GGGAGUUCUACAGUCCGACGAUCACUGAACUUUUUGGCACUGCUUUGGAUUGGGGUCAAUUGCAGUCCACGUAACUGGCUGCAGAGAAAUCUACCGAGCAAGGAAAAGGCACACACACACGUUUGCAGGGGUGUGGAAUUCUCGGGUGCCAA`: “RBNS enrichment (R)” 1.55.
`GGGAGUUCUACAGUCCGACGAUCGCUGGCCUUCGAGGGCGAGGCCGCCUGCCGGGCCUUCCUAGAGCCCCUGGGCCUGGCCUACACGGGCCCGGACAACUCCAGCAUCGACUGCCGCCUCAGCCUGGCGCAGCUGGAAUUCUCGGGUGCCAA` — result for “RBNS enrichment (R)”: 0.416.
Under “RBNS enrichment (R)”, `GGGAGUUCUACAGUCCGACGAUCCUUGCGCCAGCUCAGAGGCCUGCCUCUAUGGUCCAGUGCAUCCCCGCUGUGCUCAGAUGCUGACGAGACUCCUUUGCUAGACUCCCCUAGUUAGGGCCUCUGCAGCUUAUUGGAAUUCUCGGGUGCCAA` is recorded as 0.278.
Under “RBNS enrichment (R)”, `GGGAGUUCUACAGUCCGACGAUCGAUAGUCACUGGCAGAGCUCUGCAUGGGUGAGAAGGUCCUGACUGCCGGCACCUAACAGCCUUAGUGUGGGGAUCUGGAGGCUGGCUUUGCUGGGGACAAUCCCGGGUAGUGGAAUUCUCGGGUGCCAA` is recorded as 2.67.
For `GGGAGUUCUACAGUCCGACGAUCCGAUCACCAAGCAAGAAGCCAUUAGCAAGCUGCUGGGGGGGUCAGGGGUUCUGCUGGCUCAUACCCUCAGAAGAGCACCUGGGAGUAACCUAGUCAUGGCAAAGAAGAUGUGGAAUUCUCGGGUGCCAA`, “RBNS enrichment (R)” read 0.259.
Under “RBNS enrichment (R)”, `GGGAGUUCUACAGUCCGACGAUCCCGGUACCCUAGGCCAGGCGGAUGCCUCGACGGUGCCAACCACAGCGACCCGGGCGCCAGCCCAGGUCACCGAGCCCUACUGGCGCCGAGUGGGGCGCGUUUGUUCCUCAUGGAAUUCUCGGGUGCCAA` is recorded as 0.348.
For `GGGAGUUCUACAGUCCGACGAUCUUAUCUAGAGAGCUUGGUUAAUCUUUCCAUAUUAUUUGUAGUAUUGGUCACAAAUGCUGUUCCCUCUUAGCCUCAUUCUGUGCAACCAAGUGCAUAUAAGAUGCCCUGAAUGGAAUUCUCGGGUGCCAA`, “RBNS enrichment (R)” read 0.345.
Under “RBNS enrichment (R)”, `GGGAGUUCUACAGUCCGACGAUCAGGAAGGGUCCUUGCGUUGACAGCGUGUGGCUUUGGAGUCCGUUUAUGGAAGCACUCUACAAUGAACAGUUGAAUUUUAUGUCUAUUCUUUUUUCCUAUUUUAAAAGUUCUGGAAUUCUCGGGUGCCAA` is recorded as 1.06.
For `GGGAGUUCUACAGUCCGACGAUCUCUUUGCCUCAUAUUAAAAACUCAUCCCAUGGCCGCUAGGCCACCGUGCUCCAAGGGAGCUCUCAGCAGCUCUGCCUAGUGUUUCGUGCUGAACUCAUCGGGGCUUUGCGUGGAAUUCUCGGGUGCCAA`, “RBNS enrichment (R)” read 0.406.
For `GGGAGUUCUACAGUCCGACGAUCAGAAAAGCAGCCAUUGCGUGCCCUCUGUGAAGAGUUCUAACUUGGAGAACAAAUCUCUCAGACAAAUGACUUGUACUAAAUUUGGCUUUGGUUUCCAAGCCAAGGGAAAAUGGAAUUCUCGGGUGCCAA`, “RBNS enrichment (R)” read 0.272.
`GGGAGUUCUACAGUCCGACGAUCUUUGCAGUGGGGCUAGGACAGUUGAUUCAACAAAGUAUUUUUUUCUUUUUUCUCAGUCCUAAUUUGAACAGGUCAAAGAUGUGUUCAGGCAUUCCAGGUAACAGGUGUGUUGGAAUUCUCGGGUGCCAA`: “RBNS enrichment (R)” 0.368.

Block 2
Target: PABPC1L2, full length, GST fusion (mouse, UniProt A0ABA7IW68)
Method: RNAcompete
Molecule type: RNA
Matrix: in vitro
Tested at: 20 nM
Notes: 7-mer, probes averaged, single round
Baseline: mean of 7-mers
Reading: higher = stronger binding
Residues (chain): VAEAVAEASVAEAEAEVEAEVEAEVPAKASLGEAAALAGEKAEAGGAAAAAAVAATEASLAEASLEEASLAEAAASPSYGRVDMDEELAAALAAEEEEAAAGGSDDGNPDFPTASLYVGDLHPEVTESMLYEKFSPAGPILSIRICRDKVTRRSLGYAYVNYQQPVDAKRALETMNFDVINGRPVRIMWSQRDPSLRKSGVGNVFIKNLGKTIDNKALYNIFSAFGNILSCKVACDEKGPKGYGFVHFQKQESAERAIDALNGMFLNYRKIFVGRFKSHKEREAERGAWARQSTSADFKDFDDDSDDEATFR
`CGAUCUC` gave a 7-mer Z-score of -0.316.
`AAAUCCA` has a 7-mer Z-score of 0.871.
`CUAAUAA` has a 7-mer Z-score of 0.218.
For `CAUGGAA`, the 7-mer Z-score was 0.389.
The 7-mer Z-score of `ACUUUUG` is reported as -0.3.
With `UUCUACU` the 7-mer Z-score was -0.376.
For `GCGAGUC`, the 7-mer Z-score was -0.333.
The 7-mer Z-score of `AGCCUUG` is reported as -0.313.
`UGACAAU` has a 7-mer Z-score of -0.0736.
The 7-mer Z-score of `CGAUCCG` is reported as -0.251.
The 7-mer Z-score of `UACUACG` is reported as -0.204.
For `AUCACAU`, the 7-mer Z-score was -0.121.
For `AACUGGC`, the 7-mer Z-score was 0.227.
`ACCUUUA` has a 7-mer Z-score of -0.0681.
With `UGCUCAC` the 7-mer Z-score was -0.409.
With `UUUAGUU` the 7-mer Z-score was -0.335.
`GGAGCCC` has a 7-mer Z-score of -0.202.
The 7-mer Z-score of `CGCUCAC` is reported as -0.4.
`GACUCAU` gave a 7-mer Z-score of -0.162.
`CCGAAAA` gave a 7-mer Z-score of 5.13.
`GCAAAAG` has a 7-mer Z-score of 1.29.
`AGUAAUU` has a 7-mer Z-score of -0.166.
`AGCCUCG` gave a 7-mer Z-score of -0.409.

Block 3
Organism: Saccharomyces cerevisiae
Effect on: binding
Method: yeast competitive growth sequencing
Molecule type: peptide
Strain: cyclin D2-Cln2 fusion strain
Notes: peptide tiling library
Reading: direction not given
`ARKRLELGNLGNPQ` has an enrichment score of -1.64.
With `RRVLCFDS` the enrichment score was -0.889.
`LRRQLSFSED` has an enrichment score of 0.461.
For `LRRKLFLDGNGSIS`, the enrichment score was -2.86.
With `GFGFLLFICKLTF` the enrichment score was -0.725.
For `KVKRRLDLDIDGLQKE`, the enrichment score was -0.0975.
For `PPKPLKKLRFDIEGSD`, the enrichment score was -0.428.

Block 4
Target: CEBPD, bZIP domain (human)
Method: DHFR protein complementation
Matrix: yeast
Notes: single substitutions, most at no-binding floor
Baseline: wild-type JUN-FOS pair
Reading: higher = stronger binding
Parent: JUN, bZIP domain (human); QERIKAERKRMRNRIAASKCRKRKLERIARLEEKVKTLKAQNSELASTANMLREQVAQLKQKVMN; partner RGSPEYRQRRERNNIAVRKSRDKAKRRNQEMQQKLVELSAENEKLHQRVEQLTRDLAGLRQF
For `A40C`, the binding fitness was -1.45 natural log.
`L59A` has a binding fitness of -1.31 natural log.
For `Q41P`, the binding fitness was -1.46 natural log.
`L45F` gave a binding fitness of -1.49 natural log.
For `L45D`, the binding fitness was -1.5 natural log.
`L38K` has a binding fitness of -1.44 natural log.
The binding fitness of `K34D` is reported as -1.45 natural log.
The binding fitness of `S47A` is reported as -1.32 natural log.
`I28K` has a binding fitness of -1.25 natural log.
`A46P` has a binding fitness of -1.49 natural log.
`T48K` has a binding fitness of -1.24 natural log.
`K39H` gave a binding fitness of -1.39 natural log.
For `Q55G`, the binding fitness was -1.48 natural log.
For `M51V`, the binding fitness was -1.39 natural log.
With `E33S` the binding fitness was -1.45 natural log.
`A29G` has a binding fitness of -1.35 natural log.
For `A29N`, the binding fitness was -1.4 natural log.
`E33A` has a binding fitness of -1.42 natural log.
`R30V` gave a binding fitness of -1.33 natural log.
`L45I` gave a binding fitness of -1.47 natural log.
`L52W` gave a binding fitness of -1.46 natural log.
The binding fitness of `A29L` is reported as -1.44 natural log.
For `L45P`, the binding fitness was -1.51 natural log.

For quick reference, copied from above (block 1):
For `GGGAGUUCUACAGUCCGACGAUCUCUUUGCCUCAUAUUAAAAACUCAUCCCAUGGCCGCUAGGCCACCGUGCUCCAAGGGAGCUCUCAGCAGCUCUGCCUAGUGUUUCGUGCUGAACUCAUCGGGGCUUUGCGUGGAAUUCUCGGGUGCCAA`, “RBNS enrichment (R)” read 0.406.
Under “RBNS enrichment (R)”, `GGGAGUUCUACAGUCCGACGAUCCCGGUACCCUAGGCCAGGCGGAUGCCUCGACGGUGCCAACCACAGCGACCCGGGCGCCAGCCCAGGUCACCGAGCCCUACUGGCGCCGAGUGGGGCGCGUUUGUUCCUCAUGGAAUUCUCGGGUGCCAA` is recorded as 0.348.
`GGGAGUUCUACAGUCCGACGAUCUUUGCAGUGGGGCUAGGACAGUUGAUUCAACAAAGUAUUUUUUUCUUUUUUCUCAGUCCUAAUUUGAACAGGUCAAAGAUGUGUUCAGGCAUUCCAGGUAACAGGUGUGUUGGAAUUCUCGGGUGCCAA`: “RBNS enrichment (R)” 0.368.
`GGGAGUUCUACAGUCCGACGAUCACUGAACUUUUUGGCACUGCUUUGGAUUGGGGUCAAUUGCAGUCCACGUAACUGGCUGCAGAGAAAUCUACCGAGCAAGGAAAAGGCACACACACACGUUUGCAGGGGUGUGGAAUUCUCGGGUGCCAA`: “RBNS enrichment (R)” 1.55.
For `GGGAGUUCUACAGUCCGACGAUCGUUUGCCUUGGGCAGCUGUGGGGUUUUUCCGAUCUUGCUAGCCCGCAGGCAUCUUGACAUCUUAGUAACUGCCUUUUUAAUCCCAGUGGCCUGUACCAUAUUAUGGAGAAUGGAAUUCUCGGGUGCCAA`, “RBNS enrichment (R)” read 0.279.
Under “RBNS enrichment (R)”, `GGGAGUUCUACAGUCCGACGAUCAGGAAGGGUCCUUGCGUUGACAGCGUGUGGCUUUGGAGUCCGUUUAUGGAAGCACUCUACAAUGAACAGUUGAAUUUUAUGUCUAUUCUUUUUUCCUAUUUUAAAAGUUCUGGAAUUCUCGGGUGCCAA` is recorded as 1.06.
`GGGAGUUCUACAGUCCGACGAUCGCUGGCCUUCGAGGGCGAGGCCGCCUGCCGGGCCUUCCUAGAGCCCCUGGGCCUGGCCUACACGGGCCCGGACAACUCCAGCAUCGACUGCCGCCUCAGCCUGGCGCAGCUGGAAUUCUCGGGUGCCAA` — result for “RBNS enrichment (R)”: 0.416.
